Published values collected from several papers.
Every numbered part comes from another study and shows a few of its results, in no order.

Sample 1
Target: POU, POU domain (Salpingoeca helianthica)
Method: Spec-seq
Molecule type: double-stranded DNA, one strand shown
Sample: in vitro
Concentration: not given
Setting: whole probe, mean of replicates
Baseline: not given
Reading: lower = stronger binding
All sequences stand within: GAGTCGTCTCGTCAGCACA … CCGTAGAGCACTCAGGTC
Residues (chain): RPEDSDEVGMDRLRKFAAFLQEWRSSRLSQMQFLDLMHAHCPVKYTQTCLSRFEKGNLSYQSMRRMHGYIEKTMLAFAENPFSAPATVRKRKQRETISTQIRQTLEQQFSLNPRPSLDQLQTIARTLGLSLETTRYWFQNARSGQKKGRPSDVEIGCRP
Under “relative binding energy”, `TGCGTAT` is recorded as 1.17 ln ratio.
For `TGTGGAT`, “relative binding energy” read 1.22 ln ratio.
`TGCAAAT` — result for “relative binding energy”: 0.437 ln ratio.
For `TTTACAT`, “relative binding energy” read 0.283 ln ratio.
Under “relative binding energy”, `TGCAGTA` is recorded as 1.28 ln ratio.
`GCATAAT` — result for “relative binding energy”: 0.815 ln ratio.
Under “relative binding energy”, `TGCGGGA` is recorded as 1.37 ln ratio.
Under “relative binding energy”, `TGCGCTA` is recorded as 1.11 ln ratio.

Sample 2
Target: Hepatocyte nuclear factor 3-alpha (Foxa1, Mus musculus, UniProt P35582, residues 1-468, full length assumed)
Method: EMSA with sequencing
Molecule type: double-stranded DNA, one strand shown
Sample: in vitro
Concentration: 10 and 20 nM
Setting: whole designed probe, mean of two concentrations, ends assumed
Baseline: negative control set to 0
Reading: higher = stronger binding
Construct (chain): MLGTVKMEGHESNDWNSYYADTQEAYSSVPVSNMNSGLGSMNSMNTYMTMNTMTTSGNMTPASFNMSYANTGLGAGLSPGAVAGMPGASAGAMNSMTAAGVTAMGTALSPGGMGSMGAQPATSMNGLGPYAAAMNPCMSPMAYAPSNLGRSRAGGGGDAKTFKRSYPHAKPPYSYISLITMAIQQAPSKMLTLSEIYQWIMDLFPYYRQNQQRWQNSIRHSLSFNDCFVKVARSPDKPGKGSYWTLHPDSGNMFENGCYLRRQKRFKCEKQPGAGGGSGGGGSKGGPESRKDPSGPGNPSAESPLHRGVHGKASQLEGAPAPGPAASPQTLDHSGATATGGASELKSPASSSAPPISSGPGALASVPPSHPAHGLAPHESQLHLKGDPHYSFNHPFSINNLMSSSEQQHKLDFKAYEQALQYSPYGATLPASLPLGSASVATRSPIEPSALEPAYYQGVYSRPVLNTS
`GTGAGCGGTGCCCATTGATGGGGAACATCTTCCCCCTCTTCCTTGCCCCACCAGCTCACCTTCCCGGGTATCTGCAAATAAGGAAAATAAATAAAGCCGGCATTCGTTAACCCTCTTCTGGCGCAAACTGCCAGAGCAAACAGATGAATCATGGTCCTTTGGCGACGCCAGGCTCCGGGAGAGCAAAGCACCGTGTCAGGGCCATGATCCGGGGTGGCCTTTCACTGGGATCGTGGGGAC` — result for “normalised bound fraction”: 0.385 ratio.
`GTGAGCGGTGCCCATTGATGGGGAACCTTCCAAATTACATGAGATTTCTGTTTCTACATTTTCTTTGTCTTGGCATATTTGATGATGTGCATTGAGTCATTATATAGCTTCTAAGAATCTGTTTACTTTTTACTATGTTAACAATGAGTTCTTGGGGATATTCCTGTTTGAAAATCACTGTACGTGTAGTAAATCTATTTCTGGGATCTCCATTCCCATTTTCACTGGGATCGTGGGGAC`: “normalised bound fraction” 0.423 ratio.
For `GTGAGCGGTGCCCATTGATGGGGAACGTGAATGTTGGATTCATGGATTGGGTATGACTACTCTGGGTCTGCCACCCCCAGAAAGTTTAGCACAAGTCACAGAGCAGCGTCAGGAAGCCCTTGTTTACATTTCACACACCCTTTAGGCCCTTCTCCCAGCCAGCCTGATACCAGATTCACAGAGTTCACAAACTGTGAACTCTCTCTACCTAGTTGCTGTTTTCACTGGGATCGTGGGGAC`, “normalised bound fraction” read 0.421 ratio.
Under “normalised bound fraction”, `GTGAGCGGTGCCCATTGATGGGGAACATCTCGTAACAAATGGCTTCAGGGTGTTCAGCTGTTCTGCAGCTATGCTGAGGAATTCCTGCCTGTACAAAAGTCACTGTTCCAAGTCCTGTTTGTTTACATTTTACTAATAAACCTCTGCCTCTGTGCTTAGCCTGAGGGGCTGCAGAGCTCCACACCCAGGAGTGGGCCCTCTGGGGATGCTGGGGTTTGATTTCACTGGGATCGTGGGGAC` is recorded as 0.48 ratio.
For `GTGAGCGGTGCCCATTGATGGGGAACATCTTCCCCCTCTTCCTTGCCCCACCAGCTCACCTACGGGGGTTATTTGCACAAAGGAAAATAAATAAAGCCGGCATTCGTTAACGCAGTTCTGGCGCAAACTGCTGTTTGCTCTGCATGAATCATGGTCCTTACGCGAGGCGTGGCTCCGGGAGAGCAAAGCACCGTGTCAGGCGCATGATCCGGGCTCGCCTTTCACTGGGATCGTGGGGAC`, “normalised bound fraction” read 0.391 ratio.
For `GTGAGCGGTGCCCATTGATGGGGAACACATAACAATAAGTGGACACTCCATGTAAGTGAAGGCTTAAAAAAATAAATGAAAGGAAGAAAGAATCTCAATACTATTATCAGATAAGAAAAAGTAATCTAGTACATACAAGTACATTTTATAATGATAAGCTATTTAGTATATAGCACAAGTATGTTGAACATGAGTCTTTAAGTACCAAGTTACAAAAACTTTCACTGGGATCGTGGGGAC`, “normalised bound fraction” read 0.0207 ratio.
For `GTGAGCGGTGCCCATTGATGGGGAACTATCATGAATTTGCACTATGACAAATCAACTTTCAAGCATTTTCTTGACAGTTTTAGAGGTTTTGCCAGCTTTTGACATACATACAGACAGAGTAAACAAGGGGAAAAAAGAAAACTTAGTGAGCACGTAAGTCATGGAGTTTGAGCTCCAATAAAAATATTCATTAAAGAGGAAGAATAAGGTGGGGGGTGGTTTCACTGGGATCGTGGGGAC`, “normalised bound fraction” read 0.316 ratio.
`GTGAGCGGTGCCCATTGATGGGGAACATCTTCCCCCTCTTCCTTGCCCCACCAGCTCACCTACGGGGGTTATTTGCAGATAGGAAAATAAATAAAGCCGGCATTCGTTAACCCTCTTCACGCGCATACTGCTGTTTGCTCTGGATCTAACATGGTCCTTTGGCGAGGCGTGGCTCCGGGAGAGCAAAGCACCGTGTCAGGGCCATGATCCGGGGTGGCCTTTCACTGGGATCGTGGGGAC`: “normalised bound fraction” 0.345 ratio.

Single results of other studies
Under “AUC over dosing interval”, `COc1ccc(-c2c(Nc3ccccn3)[nH]c3c(C4=CCCCC4)c(-c4ccccc4)nn3c2=O)cc1` is recorded as 32300 ng·h/mL (LC-MS/MS non-compartmental; human, plasma; oral, 50 mg once daily, cycle 1).
For `CCC(=O)O[C@]1(C(=O)CCl)[C@@H](C)C[C@H]2[C@@H]3CCC4=CC(=O)C=C[C@]4(C)[C@@]3(F)[C@@H](O)C[C@@]21C`, the infection rate was 75.2% (Plasmodium berghei; inhibitor; Huh-7, GFP-expressing sporozoites, liver stage; 10 µM, 24 h; baseline: untreated control).
For `PhoQ, residues 284 288 289 292 302 303 SLKLQV`, the fold induction was 9.8 (PhoP, residues 12 14 15 18 19 STWGI (Escherichia coli, UniProt P23836); Sort-seq, measured: YFP reporter; E. coli; PhoQ-PhoP variant library, together with: 10 µM Mg2+; baseline: high Mg2+ state, higher = stronger signaling).
The infection rate of `CN1CCCC(n2nc(Cc3ccc(Cl)cc3)c3ccccc3c2=O)CC1` (stereo not drawn) is reported as 105% (Plasmodium berghei; inhibitor; Huh-7, GFP-expressing sporozoites, liver stage; 10 µM, 24 h; baseline: untreated control).
Under “coronary arteriosclerosis incidence”, `CC(C)n1cnc(-c2ccc(F)cc2)c1-c1ncc(C(=O)Nc2ccc(N3CCN(C)CC3)cc2)[nH]1` is recorded as 0% (IPF patients; 30 mg once daily, adverse event).

Excerpt of the above (single results of other studies):
For `CCC(=O)O[C@]1(C(=O)CCl)[C@@H](C)C[C@H]2[C@@H]3CCC4=CC(=O)C=C[C@]4(C)[C@@]3(F)[C@@H](O)C[C@@]21C`, the infection rate was 75.2% (Plasmodium berghei; inhibitor; Huh-7, GFP-expressing sporozoites, liver stage; 10 µM, 24 h; baseline: untreated control).
For `PhoQ, residues 284 288 289 292 302 303 SLKLQV`, the fold induction was 9.8 (PhoP, residues 12 14 15 18 19 STWGI (Escherichia coli, UniProt P23836); Sort-seq, measured: YFP reporter; E. coli; PhoQ-PhoP variant library, together with: 10 µM Mg2+; baseline: high Mg2+ state, higher = stronger signaling).
The infection rate of `CN1CCCC(n2nc(Cc3ccc(Cl)cc3)c3ccccc3c2=O)CC1` (stereo not drawn) is reported as 105% (Plasmodium berghei; inhibitor; Huh-7, GFP-expressing sporozoites, liver stage; 10 µM, 24 h; baseline: untreated control).
